Assay results of several laboratories.
Protocols differ between the studies behind these lines. Several values in a cell are separate wells, animals, samples, runs or records. ± gives the spread as reported.

SMILES	test	test system	conditions	endpoint	value
Clc1ccc(-c2ccccc2)cc1		Sprague-Dawley rat, female, serum	inhalation, 35 µg/rat, 24 h	alanine aminotransferase	41 ± 4 U/L
CN1CCN(S(=O)(=O)c2cc([N+](=O)[O-])ccc2N(CCOS(C)(=O)=O)CCOS(C)(=O)=O)CC1		NOD/SCID mouse, naive, blood	intraperitoneal, 6.3 mg/kg, week 1	hemoglobin	164 g/L and 150 g/L and 160 g/L
CCc1ccc(CC/C=C/c2ccc3c(c2)C(=O)CC3)cc1		Sprague-Dawley rat, female	oral, 30 mg/kg/day, 14 days	Neutrophil percentage	13.5%
CC(=O)c1c(C)c2cnc(Nc3ccc(C4CCN(CCS(C)(=O)=O)CC4)cn3)nc2n(C2CCCC2)c1=O		human, plasma	oral, 50 mg twice daily, day 21, multiple doses, added: letrozole	clearance	3320 mL/min
C=CC(=O)N1CC[C@H](n2nc(C#Cc3cc(OC)cc(OC)c3)c3c(N)ncnc32)C1		human patients	oral, dose not given, QD regimen, adverse drug reaction, added: lanthanum carbonate hydrate	decreased appetite, grade ≥3	4.2%
Cc1cc(C)c(CNC(=O)c2cc(Cl)c3c(c2C)O[C@@](C)([C@H]2CC[C@H](N(C)C)CC2)O3)c(=O)[nH]1		relapsed/refractory NHL patients	dose not given, all TEAEs, safety set	grade 5 acute myeloid leukaemia incidence	0%
C/C(=N\C#N)N(C)Cc1ccc(Cl)nc1		soil	28 days, nominal 0.37	concentration	0.026 mg/kg dry soil
CC(C)C[C@H](NC(=O)[C@H](CCCCN)NC(=O)OCC1c2ccccc2-c2ccccc21)C(=O)N[C@H](C(=O)N[C@@H](Cc1ccccc1)C(=O)N[C@@H](Cc1ccccc1)C(=O)N[C@@H](CCCCN)C(=O)NCC(=O)N[C@@H](Cc1ccccc1)C(=O)N[C@@H](C)C(=O)N[C@@H](Cc1c[nH]c2ccccc12)C(=O)N[C@@H](CC(N)=O)C(=O)N[C@H](C(=O)N[C@H]1CSSC[C@@H](C(=O)N[C@@H](Cc2c[nH]cn2)C(=O)N[C@@H](CCCNC(=N)N)C(=O)N[C@@H](CCCNC(=N)N)C(=O)N[C@@H](C)C(=O)N[C@@H](CC(N)=O)C(N)=O)NC(=O)[C@H](C(C)C)NC(=O)[C@H](CCCNC(=N)N)NC(=O)[C@H](C(C)C)NC(=O)CNC(=O)[C@H](CC(N)=O)NC(=O)[C@H](CCCNC(=N)N)NC(=O)[C@H](Cc2ccc(O)cc2)NC(=O)[C@H](C(C)C)NC1=O)C(C)C)C(C)C	circular dichroism, refers to: Random-coil	PBS	80 µM, pH 7.4, added: LPS 1 µM	secondary structure content	29%
C=CCNc1c(O)cc2c(O)c1C[C@@H](C)C[C@H](OC)[C@H](O)[C@@H](C)/C=C(\C)[C@H](OC(N)=O)[C@@H](OC)/C=C\C=C(/C)C(=O)N2		unresectable or metastatic STS, GIST, other	intravenous, 225 mg/m^2	patients with infusion site pain	33%
O=S(=O)(Nc1ccccc1)c1ccc(NC(=S)Nc2ccccc2)cc1	refers to: CK	male mouse, blood	oral, 80 mg/kg daily, 14 days	serum enzyme activity	3750 U/L
NC(=O)[C@H]1CCN(c2ncnc(N)c2F)C[C@@H]1N1CCC[C@@H](Nc2cc(Cl)cc(C(F)(F)F)c2)C1=O		B-cell malignancy patients	oral, 41 mg twice daily, dose	grade ≥3 platelet decrease	0%
CN1CC[C@@H](c2c(O)cc(O)c3c(=O)cc(-c4ccc(C(F)(F)F)cc4Cl)oc23)[C@@H]1CO	refers to: Anemia	AML	oral, 200 mg, intermittent dosing	patients with adverse event	30%
C[C@]1(CO)Cc2ncn(-c3ccc(C#N)c(Cl)c3)c2C(=O)O1		human	10 mg, European food-effect part, fasted	drug-related abnormal skin odour	0%
C[C@H](N)Cn1ncc2ccc3c(c21)CCCO3.Cl		1-octanol/phosphate buffer	pH 7.4	distribution coefficient	4.39

A few entries again:
SMILES	test	test system	conditions	endpoint	value
NC(=O)[C@H]1CCN(c2ncnc(N)c2F)C[C@@H]1N1CCC[C@@H](Nc2cc(Cl)cc(C(F)(F)F)c2)C1=O		B-cell malignancy patients	oral, 41 mg twice daily, dose	grade ≥3 platelet decrease	0%
